Measurements gathered from unrelated publications.
Each numbered part is a random draw from the data of one study; scales do not carry over between parts. Changes are numbered by the printed parent chain.

Series 1
Target: RNA binding protein fox-1 homolog 2, RRM domain, GST-SBP tag (RBFOX2, Homo sapiens, UniProt O43251-10, residues 100-194)
Technique: RNA Bind-n-Seq
Molecule type: RNA
Sample: in vitro
Concentration: 365 nM
Setting: natural RNA segment, single round, ends assumed
Baseline: no-protein control
Direction: higher = stronger binding
Endpoint: RBNS enrichment (R)
All sequences stand within: GGGAGUUCUACAGUCCGACGAUC … UGGAAUUCUCGGGUGCCAA
Construct (chain): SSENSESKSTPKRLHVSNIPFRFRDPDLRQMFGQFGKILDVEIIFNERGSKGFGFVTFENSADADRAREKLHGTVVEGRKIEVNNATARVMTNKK
CUCAGAAACGCGGCCAGAAGACAAGCAGGGAAGUGAAAGGUCCCAGGCACACACCCUGCCCAUUGCAGGUGGCUCUUACAGCUCUCUGGUGCCAGCACGGGAUCCCUGAA: 0.239
ACCUUGAACCUACAAACCUCCAUGGACAGUCAGCAGGUGGGAAGACAUGGUGUUUGCCCAUAUCACUUCCAUUUUGUAUACACUCUGGAUUUGUGUAGGCUGUAUUCCAG: 0.261
AUGAACAAUCUGCAGCACACUGAAGGGCAUUCUGAAUUGAAGCUUGGAGAACUGCACUAAACCCACUAAACAGAUGCAAAAACCUGACCAGGCCCAACACCCACCCUGCC: 0.661
GGCCUACCCCCCAUAUGUCCUCAGAGAGGCUGAGUGUCCCCUCCAGGCAGUCAUGGGCCCUGAGGCCCCUCCUGCCUGGCCCUGCUCCCCAGUGGGGAGGUGACUGUGUU: 0.237
CACUUUAUUUUUUCACAAUUAAAUAAGAAUUGUAGAUUAAUACACCUCUAUCUUGCAUGGGAAGGAGGGAAAUAUGCGUUAUUUACUGUAAAAAAAUGGAAUUUAAAGGA: 15.4
ACAUGCUAUGCUGAAGACAUUCAAAACGUGAUGUUUUGAAUGUGGAUAAAACUGUGUAAACCACAUAAUUUUUGUACAUCCCAAAGGAUGAGAAUGUGACCUUUAAGAAA: 0.36
CCUUGAGAGUCAACUGUACAGAUGUUUGCAGGUGACUCCUGCUUGCCACCCACCCAUCAUAUUUGAUUCUGUGGGAGUGGGCACCCAUACACCUGUGUAUGUGAAAGUCA: 0.479
UUUAUCAUUCUGAAUUGUAUUAUAUAUUUAAAGUGCUCAUUAAUAGAAUGAUGGAUGUAAAUUGGAUGUAAAUAUUCAGUUUAUAUAAUUAUAUCUAAUUUGUACCCUUG: 0.579
GAGCAGACAGCAAGAAUGAAAAGCAGAAAAUACAAUAGAGGAAAUGAAGAAAAGUAGGCCUGCUGGAGCUAGAUGAUGAUGUGAUGGAAAUAGAAGUAACCUUUUAGAGA: 4.42
CUGAGGCCUAGAAGGGAGGAGUGGUCCACCCACGGUCCCAGCACAAGGCAGAGCUGGGAUGAAAACAGGGCUGAAAAGACUCAGGGCCAAUUAUUGGCUGAGCCCACGGU: 0.329
CUGAUACAUUAGCAGCUAUGUAAAUGACCUAAUUGAUAGCAGGUGUAAUAAGACUAUCGUCUUCCUACACAUAGGAGGCUCAUUCUCUGGACACACUAUCACCUAUUACA: 0.335
ACAGCAGGGCCACCUUGAUGCAGGCUGGAAUGUUAUCCCUGGGGUGUGCUUGGACCCCACCUGCUUUCUUUCUCUCCUGCCCCUCCCCUACUCUCACUGUAAUUUAUGGA: 1.28

Series 2
Target: Centromere-binding protein 1, full length, N-terminal tag (CBF1, Saccharomyces cerevisiae, UniProt P17106, residues 1-351)
Chain of UniProt P17106 (whole entry, looked up): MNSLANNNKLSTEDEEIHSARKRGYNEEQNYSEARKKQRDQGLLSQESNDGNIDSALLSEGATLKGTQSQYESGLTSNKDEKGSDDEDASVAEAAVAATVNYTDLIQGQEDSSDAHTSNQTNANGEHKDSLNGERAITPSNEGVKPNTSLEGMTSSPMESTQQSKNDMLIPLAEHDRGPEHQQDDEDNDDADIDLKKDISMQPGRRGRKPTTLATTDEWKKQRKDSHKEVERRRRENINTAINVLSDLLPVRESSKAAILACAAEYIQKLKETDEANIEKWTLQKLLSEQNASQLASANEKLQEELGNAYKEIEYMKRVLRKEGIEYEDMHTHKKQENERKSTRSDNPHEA
Technique: protein-binding microarray
Molecule type: double-stranded DNA, one strand shown
Sample: in vitro
Concentration: 0.8 µM
Setting: whole 60-bp probe, no competitor
Direction: higher = stronger binding
Endpoint: fluorescence intensity
All sequences stand within: … GTCTTGATTCGCTTGACGCTGCTG
GAAATGGTATATTGGCACCTGAGCAAATCCAACTAG: 633 a.u.
CTACCAGTGAAATTTCACGTGATGTAATCTGATTTC: 7310 a.u.
TGTACGAAGCTATAAAGCGTGTCTATAGTAGTTAGG: 540 a.u.
CTAGGGCGCAACAAACACCTGATGTGACTCCTATTC: 702 a.u.
GAACAGTCGAAGAATCTCCTGTTTCATAAACATTAG: 489 a.u.
CTATGAAAACTCACTCACGTCTTCCTAGAAGATTTC: 513 a.u.
CTAGGCGCGGAGTCGCTGATGACGCAATAGGCATTC: 490 a.u.
CTAGATTCACCCCCTGATGTTTTTTAGGCCACTTTC: 548 a.u.
GAATACATTGGTATAGACGTGGGAGAAGAAAAGTAG: 618 a.u.
GAATTATTTCATTGTCACATGCTTTTTGACTCATAG: 3110 a.u.
CTATTTTACGTTAATGACGTCATGGTAGTGTTCTTC: 509 a.u.
CTATACTGAATAGCCCACGCACGGGTTCGGGGTTTC: 609 a.u.
CTAGGCAAAATAATACACGTGCCCGTACGGCACTTC: 5420 a.u.
GAAATAAGCGCTAGCGTGGTGACACCCACAAAATAG: 547 a.u.
CTATTTGCACCTATCCACGAGAGAAAGCAAGGATTC: 569 a.u.
CCTAACTACTATATGGACATGATATAGCTTCGTACA: 539 a.u.
GAATGCAGTTTATGATATGTGATCGCGTTAAAATAG: 544 a.u.

Series 3
Target: Ras GTPase-activating protein-binding protein 1, full length (G3BP1, Homo sapiens, UniProt Q13283)
Chain of UniProt Q13283 (whole entry, looked up): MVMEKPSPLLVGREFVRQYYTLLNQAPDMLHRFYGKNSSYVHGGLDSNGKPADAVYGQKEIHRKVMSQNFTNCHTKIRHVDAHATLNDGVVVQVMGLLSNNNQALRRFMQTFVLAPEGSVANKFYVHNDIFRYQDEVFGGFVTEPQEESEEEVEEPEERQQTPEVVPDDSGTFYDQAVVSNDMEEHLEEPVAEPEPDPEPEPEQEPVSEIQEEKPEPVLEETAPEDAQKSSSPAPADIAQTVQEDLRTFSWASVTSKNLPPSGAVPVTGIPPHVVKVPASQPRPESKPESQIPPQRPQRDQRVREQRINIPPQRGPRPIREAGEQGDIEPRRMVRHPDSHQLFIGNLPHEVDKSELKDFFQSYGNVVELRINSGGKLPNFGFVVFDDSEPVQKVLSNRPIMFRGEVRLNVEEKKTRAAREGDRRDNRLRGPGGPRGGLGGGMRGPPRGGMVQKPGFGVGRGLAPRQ
Technique: RNA Bind-n-Seq
Molecule type: RNA
Sample: in vitro
Concentration: 200 nM
Setting: whole 134-nt RNA, ends assumed
Added: 150 mM KCl
Baseline: input library
Direction: higher = stronger binding
Endpoint: log2 enrichment
All sequences stand within: GGGAGUUCUACAGUCCGACGAUC … UGGAAUUCUCGGGUGUCAAGG
GUCCUGUGCUACACAUCGUAUGUACCGAAUCAAAUUUUUAAACCCCCAAAUUUUUAAAAAAGUAUUAUGUUACGCCGUUCGGAUCUGCAC: -0.0258
UUAUUGAACUGACAAGGUCCUCCCUGUGUUGUAGCAAGGACCAGACUGGCUUGAGCUCUCUGAGAUGACCGAGCAGCCAGACUAUGACCU: 1.11
CACAUACAACACGCACCCACACAGACACAGAGGGAAGGGGUUGGGAUGGGGACAGGGUGCACAGCAGGGCGGGGUAGGACCCCAGCCCCU: 1.84
UCCUGUGCUACACAUCGUAUGUACCGAAUCGGCCCCCCGGGCCCCCCGGGGCCCCCCGGAAAGUAUUAUGUUACGCCGUUCGGAUCUGCA: -0.617
CCUCAGUGUCAUUUAUGAAAAGAGGGGACCAGAAGCCAAAGACUUAGUAUAUUUUCUUUUCCUCUGUCCCUUCCCCCAUAAGCCUCCAUU: -0.0622
UAACUCUAGAGGAGGAUCUGAUGGAUAUGGCAGUGGACGUGGAUUUGGGGAUGGCUAUAAUGGGUAUGGAGGAGGACCUGGAGGUGGCAA: 0.413
GUCCUGUGCUACACAUCGUAUGUACCGAAUCGGGGUGGGGUUUGGGGAAAAAAAGGGGAAAGUAUUAUGUUACGCCGUUCGGAUCUGCAC: 0.415
UCAAGUCCUGUGCUACACAUCGUAUGUACCGAAUCGGGUUGGGGUUGGGGUUGGAAAGUAUUAUGUUACGCCGUUCGGAUCUGCACUUCC: 0.251
UCAAGUCCUGUGCUACACAUCGUAUGUACCGAAUCGGAAAAAGGAAAAAGGUGGAAAGUAUUAUGUUACGCCGUUCGGAUCUGCACUUCC: -0.869
GUCCUGUGCUACACAUCGUAUGUACCGAAUCGGGUUUUUUUGGGAGGGAAAAAAAGGGAAAGUAUUAUGUUACGCCGUUCGGAUCUGCAC: -0.326
GUAGGAAGUAAAAACAAAUGGAAAUGCUUCGGAUAGUGGCAGGGGUGGGGGUUGCUAAGGAAAGGGUGGGAUGGGAGUGGGUAAAGAGUU: 1.18
UCCUGUGCUACACAUCGUAUGUACCGAAUCGGCCCCCCGGCCCCCCGGGGCCCCCCGGGGAAAGUAUUAUGUUACGCCGUUCGGAUCUGC: -0.372
UGGGAGGUGGAUUUUGUUUAUUUUUUUAGCUCAUAUCCAGGGGUGGGAAUUUUUUUUUAAUAUGUGUCAUGAAUAAAGUUGUUUUUGAAA: 0.152
UCCGCACACCCGGCCUGUCACCCUGCUUUCCCUGCCUCUACUUGACUUGGAAUUGGCUGAAGACUACACAGGAAUGCAUCGUUCCCACUC: 1.25

Series 4
Target: CCNA2, cyclin fold, Cln2 fusion (human)
Technique: yeast growth competition, sequencing
Sample: yeast
Setting: strong parent motif
Baseline: not given
Direction: higher = stronger binding
Endpoint: normalised enrichment score
Starting sequence: RBL1 docking peptide (human); GSAKRRLFGEDPP
F8T: 0.931
E10S: 5.85
D11L: 5.93
A3E: 0.614
K4M: 1.87
R5S: 1.13
E10G: 5.25
K4P: 0.627
F8S: -0.686
S2A: 5.34
P12Q: 5.43
G1L: 5.95
G1M: 4.71
R6H: 2.89
R5D: 0.0654
G1S: 5.19
G1T: 5.98

Excerpt of the above (series 1):
CUCAGAAACGCGGCCAGAAGACAAGCAGGGAAGUGAAAGGUCCCAGGCACACACCCUGCCCAUUGCAGGUGGCUCUUACAGCUCUCUGGUGCCAGCACGGGAUCCCUGAA: 0.239
ACCUUGAACCUACAAACCUCCAUGGACAGUCAGCAGGUGGGAAGACAUGGUGUUUGCCCAUAUCACUUCCAUUUUGUAUACACUCUGGAUUUGUGUAGGCUGUAUUCCAG: 0.261
AUGAACAAUCUGCAGCACACUGAAGGGCAUUCUGAAUUGAAGCUUGGAGAACUGCACUAAACCCACUAAACAGAUGCAAAAACCUGACCAGGCCCAACACCCACCCUGCC: 0.661
GGCCUACCCCCCAUAUGUCCUCAGAGAGGCUGAGUGUCCCCUCCAGGCAGUCAUGGGCCCUGAGGCCCCUCCUGCCUGGCCCUGCUCCCCAGUGGGGAGGUGACUGUGUU: 0.237
CACUUUAUUUUUUCACAAUUAAAUAAGAAUUGUAGAUUAAUACACCUCUAUCUUGCAUGGGAAGGAGGGAAAUAUGCGUUAUUUACUGUAAAAAAAUGGAAUUUAAAGGA: 15.4
ACAUGCUAUGCUGAAGACAUUCAAAACGUGAUGUUUUGAAUGUGGAUAAAACUGUGUAAACCACAUAAUUUUUGUACAUCCCAAAGGAUGAGAAUGUGACCUUUAAGAAA: 0.36
CCUUGAGAGUCAACUGUACAGAUGUUUGCAGGUGACUCCUGCUUGCCACCCACCCAUCAUAUUUGAUUCUGUGGGAGUGGGCACCCAUACACCUGUGUAUGUGAAAGUCA: 0.479
UUUAUCAUUCUGAAUUGUAUUAUAUAUUUAAAGUGCUCAUUAAUAGAAUGAUGGAUGUAAAUUGGAUGUAAAUAUUCAGUUUAUAUAAUUAUAUCUAAUUUGUACCCUUG: 0.579
GAGCAGACAGCAAGAAUGAAAAGCAGAAAAUACAAUAGAGGAAAUGAAGAAAAGUAGGCCUGCUGGAGCUAGAUGAUGAUGUGAUGGAAAUAGAAGUAACCUUUUAGAGA: 4.42
